Assay results collected from several papers.
Each numbered part is a random draw from the data of one study; scales do not carry over between parts. Positions count from the first letter of the parent shown.
Sequence of UniProt P61077 (whole entry, looked up): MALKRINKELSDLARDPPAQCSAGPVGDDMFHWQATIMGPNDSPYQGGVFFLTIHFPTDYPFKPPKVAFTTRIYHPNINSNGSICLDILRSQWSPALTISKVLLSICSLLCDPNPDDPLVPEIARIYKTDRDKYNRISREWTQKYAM

Set 1
Target: CCND2, cyclin fold, Cln2 fusion (human)
Method: yeast growth competition, sequencing
Sample: yeast
Setting: weak parent motif
Reference: not given
Direction: higher = stronger binding
Quantity: normalised enrichment score
Starting sequence: CDC25A docking peptide (human); PPHRRRLLFACSP
Change = PPNRRRLLFACSP [H3N]; value = 0.104
Change = PPQRRRLLFACSP [H3Q]; value = -0.123
Change = PPHRRRLMFACSP [L8M]; value = 0.127
Change = PPHRRRLLFACLP [S12L]; value = 0.281
Change = PPHRRRLLFACNP [S12N]; value = 0.458
Change = PPHRRSLLFACSP [R6S]; value = 0.194
Change = PPHRRRLLFACSQ [P13Q]; value = 0.069
Change = PPHRRRALFACSP [L7A]; value = 0.248

Set 2
Target: PABPC1L2, full length, GST fusion (mouse, UniProt A0ABA7IW68)
Method: RNAcompete
Molecule type: RNA
Sample: in vitro
Concentration: 20 nM
Setting: 7-mer, probes averaged, single round
Reference: mean of 7-mers
Direction: higher = stronger binding
Quantity: 7-mer Z-score
Oligonucleotide = AAGCCCG; value = -0.0899
Oligonucleotide = CGGUGUC; value = -0.166
Oligonucleotide = CUGAUGC; value = -0.199
Oligonucleotide = CAAUAUA; value = 0.0932
Oligonucleotide = UGCUCGC; value = -0.287
Oligonucleotide = UACGCUA; value = -0.139
Oligonucleotide = CACGAUC; value = -0.101
Oligonucleotide = CCCGGCG; value = -0.206

Further values, each from its own experiment
EEF1A1: EEF1A1 (Homo sapiens, UniProt P68104)
Substance = EEF1B2 (Homo sapiens, UniProt P24534); tested on = EEF1A1; assay = cross-linking MS; conditions = hits only; quantity = interaction screen; value = cross-linked
Substance = QLQDIKEQTMCPVCLDRLKNMIFLCGHGTCQLCGDRMSECPICRKAIERRILLY (MIB1 RING domain (UniProt Q86YT6)); tested on = UBE2D3 UBC core domain (UniProt P61077); assay = yeast two-hybrid; system = yeast; conditions = mostly zero background; how to read = reference: not given, higher = stronger interaction; quantity = lacZ reporter activity; value = 10500
Substance = VPS13C (Homo sapiens, UniProt Q709C8); tested on = FTSJ3 (Homo sapiens, UniProt Q8IY81); assay = cross-linking MS; system = cell fractions; conditions = added: DSSO; quantity = cross-linked residues; value = T1227 to S677
Substance = EEF1D (Homo sapiens, UniProt P29692); tested on = EEF1A1; assay = cross-linking MS; conditions = hits only; quantity = interaction screen; value = cross-linked
Substance = MTA1 (Homo sapiens, UniProt Q13330); tested on = RBBP7 (Homo sapiens, UniProt Q16576); assay = cross-linking MS; conditions = hits only; quantity = interaction screen; value = cross-linked

A few entries again (set 1):
Change = PPHRRRLMFACSP [L8M]; value = 0.127
